Assay results collected from several papers.
Numbered parts are unrelated; each lists some results of a single study.
Chain of UniProt Q15418 (whole entry, looked up): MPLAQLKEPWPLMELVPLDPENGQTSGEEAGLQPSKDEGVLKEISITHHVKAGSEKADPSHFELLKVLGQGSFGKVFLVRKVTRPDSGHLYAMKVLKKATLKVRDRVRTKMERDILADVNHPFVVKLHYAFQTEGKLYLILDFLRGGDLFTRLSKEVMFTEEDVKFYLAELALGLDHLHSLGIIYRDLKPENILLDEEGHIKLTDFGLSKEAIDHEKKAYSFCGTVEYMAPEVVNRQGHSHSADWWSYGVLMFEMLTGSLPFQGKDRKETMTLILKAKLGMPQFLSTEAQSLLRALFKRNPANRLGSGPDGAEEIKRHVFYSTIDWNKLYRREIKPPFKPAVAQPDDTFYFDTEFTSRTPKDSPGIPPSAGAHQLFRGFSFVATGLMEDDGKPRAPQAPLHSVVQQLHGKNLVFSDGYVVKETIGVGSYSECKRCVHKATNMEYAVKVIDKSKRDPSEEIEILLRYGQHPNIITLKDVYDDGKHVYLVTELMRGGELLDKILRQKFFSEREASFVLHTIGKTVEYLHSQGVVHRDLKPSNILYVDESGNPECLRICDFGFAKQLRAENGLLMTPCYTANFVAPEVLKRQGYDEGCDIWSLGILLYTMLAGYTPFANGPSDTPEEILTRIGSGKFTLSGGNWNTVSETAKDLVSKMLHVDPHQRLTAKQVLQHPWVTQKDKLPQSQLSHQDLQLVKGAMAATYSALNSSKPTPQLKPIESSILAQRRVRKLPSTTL
Chain of UniProt P51812 (whole entry, looked up): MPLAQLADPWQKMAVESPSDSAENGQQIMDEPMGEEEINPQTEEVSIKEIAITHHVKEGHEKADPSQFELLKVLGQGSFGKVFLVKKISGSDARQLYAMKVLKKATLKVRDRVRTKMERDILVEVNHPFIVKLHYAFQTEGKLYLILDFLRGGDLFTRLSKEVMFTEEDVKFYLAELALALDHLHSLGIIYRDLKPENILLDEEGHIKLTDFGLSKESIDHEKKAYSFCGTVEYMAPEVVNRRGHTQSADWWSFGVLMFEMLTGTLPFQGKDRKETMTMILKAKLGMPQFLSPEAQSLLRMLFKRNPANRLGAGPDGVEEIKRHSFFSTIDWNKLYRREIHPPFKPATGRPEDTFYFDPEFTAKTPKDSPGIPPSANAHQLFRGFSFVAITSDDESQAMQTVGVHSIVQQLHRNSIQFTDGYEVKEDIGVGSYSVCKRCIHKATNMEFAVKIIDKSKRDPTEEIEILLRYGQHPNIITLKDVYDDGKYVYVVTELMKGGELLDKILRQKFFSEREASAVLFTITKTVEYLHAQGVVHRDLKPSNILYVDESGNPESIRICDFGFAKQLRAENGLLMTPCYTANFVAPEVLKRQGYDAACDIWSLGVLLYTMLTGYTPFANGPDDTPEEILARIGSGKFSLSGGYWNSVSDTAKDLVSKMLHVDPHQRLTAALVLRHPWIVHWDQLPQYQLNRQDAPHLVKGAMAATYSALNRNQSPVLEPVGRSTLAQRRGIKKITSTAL
Chain of UniProt Q9NQU5 (whole entry, looked up): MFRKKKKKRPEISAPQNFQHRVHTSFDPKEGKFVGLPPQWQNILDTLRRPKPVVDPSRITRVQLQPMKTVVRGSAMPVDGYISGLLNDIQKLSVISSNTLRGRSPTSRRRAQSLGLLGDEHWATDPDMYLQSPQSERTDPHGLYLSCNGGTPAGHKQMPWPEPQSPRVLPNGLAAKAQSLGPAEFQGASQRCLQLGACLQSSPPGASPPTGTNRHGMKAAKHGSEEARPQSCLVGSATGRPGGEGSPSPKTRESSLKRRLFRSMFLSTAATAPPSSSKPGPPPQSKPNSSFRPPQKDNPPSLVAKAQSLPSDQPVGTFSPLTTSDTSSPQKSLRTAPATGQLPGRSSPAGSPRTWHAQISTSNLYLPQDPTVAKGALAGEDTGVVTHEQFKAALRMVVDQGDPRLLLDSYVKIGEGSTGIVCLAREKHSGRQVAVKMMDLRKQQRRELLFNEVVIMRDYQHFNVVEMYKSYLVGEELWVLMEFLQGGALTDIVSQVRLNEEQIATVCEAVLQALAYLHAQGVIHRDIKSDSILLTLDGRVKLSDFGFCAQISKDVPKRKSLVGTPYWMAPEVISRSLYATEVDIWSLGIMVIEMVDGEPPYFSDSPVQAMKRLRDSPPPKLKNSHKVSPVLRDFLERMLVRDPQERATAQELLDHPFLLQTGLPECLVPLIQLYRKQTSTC
Chain of UniProt Q99558 (whole entry, looked up): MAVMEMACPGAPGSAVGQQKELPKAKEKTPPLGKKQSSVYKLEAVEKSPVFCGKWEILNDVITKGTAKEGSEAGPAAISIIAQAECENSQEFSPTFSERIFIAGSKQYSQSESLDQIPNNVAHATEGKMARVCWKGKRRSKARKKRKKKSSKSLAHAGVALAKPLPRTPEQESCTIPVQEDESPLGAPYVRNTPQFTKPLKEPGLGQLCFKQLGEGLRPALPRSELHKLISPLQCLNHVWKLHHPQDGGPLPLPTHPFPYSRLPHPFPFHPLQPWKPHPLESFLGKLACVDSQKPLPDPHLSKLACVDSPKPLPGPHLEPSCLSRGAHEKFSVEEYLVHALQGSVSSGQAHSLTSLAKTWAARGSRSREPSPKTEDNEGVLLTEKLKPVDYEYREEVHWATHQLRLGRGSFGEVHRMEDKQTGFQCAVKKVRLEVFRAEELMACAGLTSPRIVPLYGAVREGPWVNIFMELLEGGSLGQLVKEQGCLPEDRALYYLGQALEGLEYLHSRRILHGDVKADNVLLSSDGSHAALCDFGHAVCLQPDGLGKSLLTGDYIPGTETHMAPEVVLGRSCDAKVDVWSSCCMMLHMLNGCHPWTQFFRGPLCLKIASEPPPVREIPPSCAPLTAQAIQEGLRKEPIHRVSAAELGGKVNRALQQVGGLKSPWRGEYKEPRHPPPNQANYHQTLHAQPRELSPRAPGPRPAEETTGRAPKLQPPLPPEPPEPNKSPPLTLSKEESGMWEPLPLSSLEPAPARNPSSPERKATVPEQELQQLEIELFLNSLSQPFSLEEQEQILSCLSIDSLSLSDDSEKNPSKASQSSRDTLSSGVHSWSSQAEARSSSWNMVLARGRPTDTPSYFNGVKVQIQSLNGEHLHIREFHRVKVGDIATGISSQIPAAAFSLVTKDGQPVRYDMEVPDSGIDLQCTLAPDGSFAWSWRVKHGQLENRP
Chain of UniProt P49137 (whole entry, looked up): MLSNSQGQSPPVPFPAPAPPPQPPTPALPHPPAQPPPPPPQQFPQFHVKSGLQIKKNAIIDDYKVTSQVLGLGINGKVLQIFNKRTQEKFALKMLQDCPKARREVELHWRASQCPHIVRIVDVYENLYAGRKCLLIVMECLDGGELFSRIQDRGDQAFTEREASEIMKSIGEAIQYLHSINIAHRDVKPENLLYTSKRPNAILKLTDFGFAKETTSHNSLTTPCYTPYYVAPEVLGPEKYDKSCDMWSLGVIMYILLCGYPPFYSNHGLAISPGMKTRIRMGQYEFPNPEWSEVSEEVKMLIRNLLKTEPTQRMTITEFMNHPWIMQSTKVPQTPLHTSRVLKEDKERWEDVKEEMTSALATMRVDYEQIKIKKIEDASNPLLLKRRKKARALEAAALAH
Chain of UniProt P51957 (whole entry, looked up): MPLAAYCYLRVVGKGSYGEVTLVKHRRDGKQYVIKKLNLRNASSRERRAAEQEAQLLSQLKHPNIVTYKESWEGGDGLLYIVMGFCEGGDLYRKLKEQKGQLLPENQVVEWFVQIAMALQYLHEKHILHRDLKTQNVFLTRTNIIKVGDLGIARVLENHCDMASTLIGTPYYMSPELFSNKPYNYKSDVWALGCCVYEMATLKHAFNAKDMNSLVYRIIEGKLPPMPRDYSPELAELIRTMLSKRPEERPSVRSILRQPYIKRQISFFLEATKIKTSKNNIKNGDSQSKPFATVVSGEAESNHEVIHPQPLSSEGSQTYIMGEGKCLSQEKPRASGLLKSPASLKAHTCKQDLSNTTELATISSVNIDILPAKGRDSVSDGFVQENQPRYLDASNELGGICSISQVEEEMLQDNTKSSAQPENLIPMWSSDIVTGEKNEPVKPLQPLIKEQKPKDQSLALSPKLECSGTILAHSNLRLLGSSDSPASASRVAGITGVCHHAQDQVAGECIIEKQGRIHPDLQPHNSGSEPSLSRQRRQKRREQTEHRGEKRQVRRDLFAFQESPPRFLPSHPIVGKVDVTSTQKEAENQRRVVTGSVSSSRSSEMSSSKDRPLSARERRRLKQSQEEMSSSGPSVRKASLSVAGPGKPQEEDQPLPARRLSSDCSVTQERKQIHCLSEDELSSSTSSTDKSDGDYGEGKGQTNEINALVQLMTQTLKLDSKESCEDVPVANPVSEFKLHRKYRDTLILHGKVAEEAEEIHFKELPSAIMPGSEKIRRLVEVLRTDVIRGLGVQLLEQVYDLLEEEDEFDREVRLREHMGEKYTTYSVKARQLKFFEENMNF
Chain of UniProt P46734 (whole entry, looked up): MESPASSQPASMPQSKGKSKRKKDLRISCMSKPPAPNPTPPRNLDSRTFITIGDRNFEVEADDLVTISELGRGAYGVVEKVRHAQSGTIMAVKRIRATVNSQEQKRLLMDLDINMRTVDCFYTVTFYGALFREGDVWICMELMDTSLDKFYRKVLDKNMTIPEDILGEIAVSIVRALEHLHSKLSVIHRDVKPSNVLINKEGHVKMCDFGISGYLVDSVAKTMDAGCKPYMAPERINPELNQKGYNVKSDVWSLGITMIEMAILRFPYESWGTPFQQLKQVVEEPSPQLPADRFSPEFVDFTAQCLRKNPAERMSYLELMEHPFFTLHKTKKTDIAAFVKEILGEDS

Series 1
Structure (SMILES): O=c1nc(-c2ccccn2)sc2ccccc12
Technique: competition with immobilised ligand
Tested at: 1 µM
The remaining binding was 91% (Serine/threonine-protein kinase Nek4 (NEK4, Homo sapiens, UniProt P51957); binding).
The remaining binding was 99% (Mitogen-activated protein kinase 13 (MAPK13, Homo sapiens, UniProt O15264); binding).
It gave 100% for remaining binding (RAC-alpha serine/threonine-protein kinase (AKT1, Homo sapiens, UniProt P31749); binding).
The remaining binding was 84% (Dual specificity testis-specific protein kinase 1 (TESK1, Homo sapiens, UniProt Q15569); binding).
Tyrosine-protein kinase Fer (FER, Homo sapiens, UniProt P16591); binding — remaining binding: 94%.
For Serine/threonine-protein kinase TAO1 (TAOK1, Homo sapiens, UniProt Q7L7X3); binding: remaining binding read 92%.
For Epidermal growth factor receptor (EGFR, Homo sapiens, UniProt P00533, L861Q); cell-free assay: remaining binding read 68%.
Mitotic checkpoint serine/threonine-protein kinase BUB1 (BUB1, Homo sapiens, UniProt O43683); binding — remaining binding: 100%.
The remaining binding was 75% (Dual specificity mitogen-activated protein kinase kinase 3 (MAP2K3, Homo sapiens, UniProt P46734); binding).
For Mitogen-activated protein kinase kinase kinase 14 (MAP3K14, Homo sapiens, UniProt Q99558); binding: remaining binding read 100%.
For Ribosomal protein S6 kinase alpha-1, N-terminal kinase domain (RPS6KA1, Homo sapiens, UniProt Q15418); binding: remaining binding read 100%.
It gave 92% for remaining binding (Mitogen-activated protein kinase kinase kinase 4 (MAP3K4, Homo sapiens, UniProt Q9Y6R4); binding).
The remaining binding was 100% (Interleukin-1 receptor-associated kinase 1 (IRAK1, Homo sapiens, UniProt P51617); binding).
The remaining binding was 100% (Tyrosine-protein kinase ABL1, phosphorylated (ABL1, Homo sapiens, UniProt P00519, T315I); binding).
Phosphatidylinositol 4-phosphate 3-kinase C2 domain-containing subunit beta (PIK3C2B, Homo sapiens, UniProt O00750); cell-free assay — remaining binding: 83%.
Ribosomal protein S6 kinase alpha-1, C-terminal kinase domain (RPS6KA1, Homo sapiens, UniProt Q15418); binding — remaining binding: 100%.
For MAP kinase-activated protein kinase 2 (MAPKAPK2, Homo sapiens, UniProt P49137); binding: remaining binding read 100%.
Cyclin-dependent kinase 15 (CDK15, Homo sapiens, UniProt Q96Q40); binding — remaining binding: 75%.

Series 2
Target: GTPase KRas (KRAS, Homo sapiens, UniProt P01116, Q61L)
Read-out: target engagement in cells
Technique: BRET
For `CN1CCC[C@H]1COc1nc2c(c(N3CCN(S(C)(=O)=O)[C@@H](CC#N)C3)n1)CCN(c1cccc3cccc(Cl)c13)C2`, the IC50 was 690 nM.
`CC(=O)N1CCN(c2nc(OC[C@@H]3CCCN3C)nc3c2CCN(c2cccc4cccc(Cl)c24)C3)C[C@@H]1CC#N` has an IC50 of 1200 nM.
`CCC(=O)N1CCN(c2nc(OC[C@@H]3CCCN3C)nc3c2CCN(c2cccc4cccc(Cl)c24)C3)C[C@@H]1CC#N` has an IC50 of 1700 nM.

Series 3
Host: human
Matrix: microsomes or S9
Tested at: 2 µM
Time: 0.5 h
`CC(C)(C)c1cc(NC(=O)Cn2nnn(-c3ccccc3)c2=O)on1` gave a remaining compound of 71.9%.
With `COc1ccc(C(=O)C2=CN(c3ccc(N(C)C)cc3)c3ccccc3S2(=O)=O)cc1OC` the remaining compound was over 100%.
With `C[S+]([O-])c1sc(Br)c2c1C(=O)CC(C)(C)C2` (stereo not shown) the remaining compound was 92.2%.
With `CC(NCc1cccc(OCc2cccnc2)c1)c1ccc2c(c1)OCCCO2` (stereo not shown) the remaining compound was 0.273%.
The remaining compound of `N#Cc1c(-c2cccs2)cc(=O)[nH]c1SCC(=O)c1ccc(Br)cc1` is reported as 76.2%.
`O=S(=O)(NCC(c1ccco1)S(=O)(=O)c1ccccc1)c1ccc(Oc2ccccc2)cc1` (stereo not shown) gave a remaining compound of 3.9%.

Series 4
SMILES: O=C1NC(=O)c2c1c1c3ccccc3[nH]c1n1cncc21
Read-out: enzyme activity
Mode: inhibitor
Tested at: 0.5 µM
Baseline: control
Ephrin type-A receptor 2 (EPHA2, Homo sapiens, UniProt P29317) — remaining activity: 102%.
The remaining activity was 54.4% (Muscle, skeletal receptor tyrosine-protein kinase (MUSK, Homo sapiens, UniProt O15146)).
The remaining activity was 78.7% (Mitogen-activated protein kinase kinase kinase 20 (MAP3K20, Homo sapiens, UniProt Q9NYL2)).
Serine/threonine-protein kinase PAK 6 (PAK6, Homo sapiens, UniProt Q9NQU5) — remaining activity: 85.5%.
Ribosomal protein S6 kinase alpha-3 (RPS6KA3, Homo sapiens, UniProt P51812) — remaining activity: 47.4%.

Series 5
Cell line: HaCaT
Tested at: 100 µM
Time: 60 h
With `CCOC(=O)O[C@]1(C(=O)OCCl)CC[C@H]2[C@@H]3CCC4=CC(=O)C=C[C@]4(C)[C@H]3[C@@H](O)C[C@@]21C` the viability was 89.4%.
For `Cc1nnc(NS(=O)(=O)c2ccc(N)cc2)s1`, the viability was 107%.
For `CCNC(=O)[C@@H]1CCCN1C(=O)[C@H](CCCNC(=N)N)NC(=O)[C@H](CC(C)C)NC(=O)[C@@H](C)NC(=O)[C@H](Cc1ccc(O)cc1)NC(=O)[C@H](CO)NC(=O)[C@H](Cc1c[nH]c2ccccc12)NC(=O)[C@H](Cc1c[nH]cn1)NC(=O)[C@@H]1CCC(=O)N1`, the viability was 143%.
`C=CC1=C(C(=O)O)N2C(=O)[C@@H](NC(=O)/C(=N\O)c3csc(N)n3)[C@H]2SC1` gave a viability of 134%.
For `N=C(N)c1ccc(OCCCCCOc2ccc(C(=N)N)cc2)cc1`, the viability was 18.9%.

A few entries again (series 1):
It gave 92% for remaining binding (Mitogen-activated protein kinase kinase kinase 4 (MAP3K4, Homo sapiens, UniProt Q9Y6R4); binding).
It gave 100% for remaining binding (RAC-alpha serine/threonine-protein kinase (AKT1, Homo sapiens, UniProt P31749); binding).
Cyclin-dependent kinase 15 (CDK15, Homo sapiens, UniProt Q96Q40); binding — remaining binding: 75%.
For Epidermal growth factor receptor (EGFR, Homo sapiens, UniProt P00533, L861Q); cell-free assay: remaining binding read 68%.
The remaining binding was 91% (Serine/threonine-protein kinase Nek4 (NEK4, Homo sapiens, UniProt P51957); binding).
The remaining binding was 99% (Mitogen-activated protein kinase 13 (MAPK13, Homo sapiens, UniProt O15264); binding).
